Measured values pooled from the literature.
Numbered parts are unrelated; each lists some results of a single study. Changes are numbered by the printed parent chain.

Study 1
Target: RNA binding protein fox-1 homolog 2, RRM domain, GST-SBP tag (RBFOX2, Homo sapiens, UniProt O43251-10, residues 100-194)
Technique: RNA Bind-n-Seq
Form: RNA
Matrix: in vitro
Tested at: 365 nM
Setting: natural RNA segment, single round, ends assumed
Baseline: no-protein control
Reading: higher = stronger binding
Target sequence (chain): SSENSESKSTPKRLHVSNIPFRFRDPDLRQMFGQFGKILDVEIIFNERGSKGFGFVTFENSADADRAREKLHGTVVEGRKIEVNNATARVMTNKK
Oligonucleotide	RBNS enrichment (R)
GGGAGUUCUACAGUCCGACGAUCGACUACUCAAGCUCUGUUUACAGAAGAAAAUUGAAUGGCGAGGGUGUGGCCAUAUGAACUGACUAGAUGGCUAAUAUGGACACUUUGGGUAUUUCUAAUGCCUGUUCAGGUGGAAUUCUCGGGUGCCAA	0.337
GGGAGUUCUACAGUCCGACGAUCGUGUGGAACAGCAGAGAAAGUCCCGUCCCUAUCUCUGACUGUGCAGUGAGUGUGGCCUAGGAACAGGUCCCUUCCUAAGCUCUAGUGUCCCCAUCUGUAAAAUGGGCUGAUGGAAUUCUCGGGUGCCAA	0.485
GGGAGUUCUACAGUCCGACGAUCCGACUGUACAUCUGCAGUCCCUCACUCAGGAGAUGGGAGCAGGAGGAUCAGGAGUUCAAGGUCAUCCUUGGCUACAUAGGGGGUUCAAAGCCAGCCUGGGCCCAAUGAAAUGGAAUUCUCGGGUGCCAA	0.474
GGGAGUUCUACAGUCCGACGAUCAUUCUCAAAACUGUCUGUCUCAUCAUGAGGAAAAAGGAACUUUCUUUUGUUCCUAUUCAGGACUUGAGGUAUAGUGCCAUAAAAUGUAGCAAAAACCCUAUCGGCCAGAUUGGAAUUCUCGGGUGCCAA	0.302
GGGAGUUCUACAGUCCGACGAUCUUCAACAAGAGUAAAUAUUGUCACAACACUGAACCUCUGGCUAGAGGACAUAUUCACAGUGAACAUAACUGUAACAUAUAUGAAAGGCUUCUGGGACUUGAAAUCAAAUGUGGAAUUCUCGGGUGCCAA	0.368
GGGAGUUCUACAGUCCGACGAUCUUUUAUGAAUAUGGUGAUGAGUUAGUAAAAGUGGCCAUUAUUGGGCUUAUUCUCUGCUCUAUAGUUGUGAAAUGAAGAGUAAAAACAAAUUUGUUUGACUAUUUUAAAAUUGGAAUUCUCGGGUGCCAA	0.627
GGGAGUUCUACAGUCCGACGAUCUGUACUUUGAAGAAUGGAAUUGUAUUAGUCAGCCUGUUAAUGCCACUUCAGAGUUUGGGGUUUUGUCUUGAUUGUAGAUUGGCCCAGAAUUGCAUUCUGAUGAAUAAAGGUGGAAUUCUCGGGUGCCAA	2.32
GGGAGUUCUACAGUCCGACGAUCAAGCUGGAGGAGGAAGGGGAGUUUUGACUAAAGUUCCUUUUGUUUGUUUUAAAUUUUCAUCAAUGUAUAUAGAACAAAAUACCAUAUUAAAGAGGGGAAUGUGGAGGACUUGGAAUUCUCGGGUGCCAA	0.776
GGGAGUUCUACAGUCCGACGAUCUUUCACUCCACUAAUGCUGUCUCAGUGUUUUCUCUCUCUCUCUUUCGAGCUUGCACUCCGGUACCCGACCCGGCGCCCUGGCCCAUCCCAUGCCGGGGGGCCAGUGGAAAUGGAAUUCUCGGGUGCCAA	0.86
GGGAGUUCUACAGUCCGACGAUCAACGCCUUCACUGGAUCAGCCGCUGGAACUGAGGGAGUGAGCUUGGGGACUUCCUUCGUCAGCACUGGCUUUCUGUUUUCACAAGACAGACGUCUGUCCCGCUGCUCUCUUGGAAUUCUCGGGUGCCAA	0.393
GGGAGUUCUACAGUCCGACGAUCCUUGUAAGUUUGUCUUUACUCCUAAUUGCUAAAUUAACUGAAACCCUUCCUGUCUAGGGAGAAUUGCUGCUAGUAAGGUCAGUUUGCAAUGUUCAGCUUUAGAUAUGUGUUGGAAUUCUCGGGUGCCAA	0.644
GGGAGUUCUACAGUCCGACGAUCCUGGUUUCUAAGAGUUUUGGGGGGCGGGGCUGUCACCACGUGCAGUAUCUCAAGAUAUUCAGGUGGCCAGAAGAGCUUGUCAGCAAGAGGAGGACAGAAUUCUCCCAGCGUGGAAUUCUCGGGUGCCAA	0.349

Study 2
Target: ABI1, truncated, D143A, DHFR fusion (Arabidopsis thaliana)
Technique: DHFR PCA, deep sequencing
Matrix: yeast
Setting: methotrexate growth selection, single substitutions
Together with: (+)-ABA 0.032 µM
Baseline: wild-type fitted maximum
Reading: higher = stronger binding
Starting sequence: PYL1, truncated, DHFR fusion (Arabidopsis thaliana); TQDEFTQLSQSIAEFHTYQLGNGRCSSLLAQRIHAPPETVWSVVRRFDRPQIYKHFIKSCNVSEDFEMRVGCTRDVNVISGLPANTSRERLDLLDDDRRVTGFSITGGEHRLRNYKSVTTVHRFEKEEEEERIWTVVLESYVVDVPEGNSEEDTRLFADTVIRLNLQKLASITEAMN; partner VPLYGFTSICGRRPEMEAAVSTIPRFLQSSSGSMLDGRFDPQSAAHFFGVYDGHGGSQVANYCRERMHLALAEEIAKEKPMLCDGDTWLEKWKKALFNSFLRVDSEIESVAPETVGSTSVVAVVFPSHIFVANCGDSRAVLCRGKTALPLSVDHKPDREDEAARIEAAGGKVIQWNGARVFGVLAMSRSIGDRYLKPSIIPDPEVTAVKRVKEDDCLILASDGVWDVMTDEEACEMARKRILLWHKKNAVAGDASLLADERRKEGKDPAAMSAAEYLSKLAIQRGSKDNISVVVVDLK
Variant	relative binding score
S80V	-0.0399%
T120D	5.84%
D97W	-1.86%
E151G	5.32%
T106D	1.14%
T101Y	8.24%
I162W	6.08%
Q7E	35.6%
F103Y	61.6%
C72A	62%
R74S	-4.14%
L82W	49.2%
P83L	2.28%
R90W	-0.403%
S140Q	7.3%
S42L	-2.51%

Study 3
Target: OGT, full length, His-tagged (human)
Technique: phage display, sequencing
Matrix: in vitro
Tested at: 1 µg OGT
Setting: single substitutions, 15-mer displayed peptide, unchanged parent 5.27
Baseline: input library
Reading: higher = stronger binding
Starting sequence: peptide; GDFPVMFMPKYSIIY
Variant	fold enrichment
F7Y	4.75 fold
Y15I	4.87 fold
V5Y	4.73 fold
P9R	3.05 fold
P4K	5.94 fold
P4A	4.64 fold
M8L	6.98 fold
F7M	1.19 fold
V5F	5.48 fold
V5G	19 fold
Y11T	1.04 fold
Y15N	1.57 fold
D2Q	5.79 fold
Y15S	1.05 fold
D2F	6.14 fold
P9T	4.32 fold
G1Y	7.05 fold
F3I	5.44 fold
Y11L	4.1 fold

Study 4
Target: BATF3, bZIP domain (human)
Technique: DHFR protein complementation
Matrix: yeast
Setting: single substitutions, most at no-binding floor
Baseline: wild-type JUN-FOS pair
Reading: higher = stronger binding
Starting sequence: JUN, bZIP domain (human); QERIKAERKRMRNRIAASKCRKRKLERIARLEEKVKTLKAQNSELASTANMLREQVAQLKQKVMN; partner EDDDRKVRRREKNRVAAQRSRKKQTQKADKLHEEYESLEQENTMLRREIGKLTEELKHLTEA
Variant	binding fitness [natural log]
V35A	-0.00918
E32W	0.0068
T48Q	0.18
R30P	0.351
A40Y	0.105
S47H	0.178
A40S	0.195
S43Q	0.286
L31P	0.0326
E44V	0.159
L45E	-0.799
A49H	0.0814
K34P	-0.269
T37G	0.246
Q55H	0.228
M51F	0.161
R53T	-0.00592
S43N	0.224
A40Q	0.25
L52N	-1.31
Q55A	0.0962
L59T	0.19
V56Y	-0.0478
K36F	0.112

Study 5
Target: CCND3, cyclin fold, Cln2 fusion (human)
Technique: yeast growth competition, sequencing
Matrix: yeast
Setting: weak parent motif
Baseline: not given
Reading: higher = stronger binding
Starting sequence: CDKN1B docking peptide (human); PSACRNLFGPVDH; partner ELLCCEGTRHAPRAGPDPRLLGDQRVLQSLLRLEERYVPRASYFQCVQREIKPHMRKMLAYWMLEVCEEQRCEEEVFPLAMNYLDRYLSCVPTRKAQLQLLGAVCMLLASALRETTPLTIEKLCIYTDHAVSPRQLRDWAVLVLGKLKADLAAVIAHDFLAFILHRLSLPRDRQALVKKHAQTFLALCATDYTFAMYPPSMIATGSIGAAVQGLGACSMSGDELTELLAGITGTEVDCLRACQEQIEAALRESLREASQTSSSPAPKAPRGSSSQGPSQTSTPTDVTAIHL
Variant	normalised enrichment score
S2V	0.134
P1D	0.064
D12K	0.104
N6M	0.111
H13M	0.0783
D12F	0.0852
S2Q	0.0758
N6E	0.118
H13Y	0.105
S2M	0.143
R5F	0.0918
S2G	0.0515
H13L	0.111
V11T	0.0778
R5W	0.0821
P1Y	0.168
L7D	0.0912
H13P	0.129
V11P	0.0861
A3Q	0.143
F8R	0.147
N6G	0.0929
G9T	0.122
G9N	0.134
L7A	0.121

Study 6
Target: CEP164, C-terminal peptide (human)
Technique: DHFR complementation, deep sequencing
Matrix: yeast
Setting: single substitutions, model-inferred values
Baseline: wild type
Reading: higher = weaker binding
Starting sequence: PDZK1, PDZ domain 2 (human); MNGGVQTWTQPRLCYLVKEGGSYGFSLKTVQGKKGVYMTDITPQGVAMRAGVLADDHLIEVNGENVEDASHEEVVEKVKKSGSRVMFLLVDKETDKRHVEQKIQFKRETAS; partner HNRVKVYRF
Variant	binding free energy change
E19T	0.035 kcal/mol
G21Y	0.255 kcal/mol
E60L	0.257 kcal/mol
Y23N	1.47 kcal/mol
V99S	-0.133 kcal/mol
Q31R	0.0474 kcal/mol
V90E	-0.184 kcal/mol
T7R	-0.241 kcal/mol
K77G	0.598 kcal/mol
T94D	0.132 kcal/mol
L88P	0.433 kcal/mol
F25W	1.64 kcal/mol
V75P	0.697 kcal/mol
N2I	-0.042 kcal/mol
K80G	0.491 kcal/mol
S111E	-0.0895 kcal/mol

Single results of other studies
Molecule	target	assay	test system	conditions	scale	quantity	result
PhoQ, residues 284 288 289 292 302 303 SSYNSA	PhoP, residues 12 14 15 18 19 IQSYL (Escherichia coli, UniProt P23836)	Sort-seq, measured: YFP reporter	E. coli	PhoQ-PhoP variant library, together with: 10 µM Mg2+	baseline: high Mg2+ state, higher = stronger signaling	fold induction	18.5

Repeated from above (study 4):
Variant	binding fitness [natural log]
R30P	0.351
A40Y	0.105
S47H	0.178
A40S	0.195
S43Q	0.286
L31P	0.0326
E44V	0.159
L45E	-0.799
A49H	0.0814
K34P	-0.269
T37G	0.246
Q55H	0.228
M51F	0.161
